Assay results gathered from unrelated publications.
Lines come from different studies, so protocols differ. “And” joins repeats or separate records; there may be more than shown. ± marks the error that the study gave. Values after ≈ are worked out from the molar mass of the structure shown.

SMILES	target or system	test	test system	conditions	how to read	endpoint	value
Oc1ccccc1-c1n[nH]cc1-c1ccnc2ccccc12	YAK1 (Candida albicans)	kinase binding, MIB/MS competition	Candida albicans lysate	1 µM	reference: DMSO	log2 fold change	0.26
NS(=O)(=O)c1ccc(CNc2ccnc(Nc3cccc(NC(=O)N4CCCC4)c3)n2)cc1	403 human wild-type kinases	scanMAX	–	–	PoC below 10	number of kinases bound	1
CNC(=O)c1cc(Oc2ccc(NC(=O)Nc3ccc(Cl)c(C(F)(F)F)c3)cc2)ccn1	CaMKII (rat)	kinase activity, inhibitor	–	0.3 µM	–	inhibition	4%
COCCOCc1ccc(-c2cc3onc(-c4ccccc4)c3c(=O)n2C)cc1	Gal4-VP16	reporter gene, Gal4-VP16 control reporter	–	3 µM	reference: vehicle	activation	1.36 fold
CCN(CC)CCNC(=O)c1c(C)[nH]c(/C=C2\C(=O)Nc3ccc(F)cc32)c1C	CaMKII (rat)	kinase activity, inhibitor	–	10 µM	–	inhibition	80%
CC(=O)ON=C1C=CC(=C(C#N)c2ccccc2)C=C1	pig GSK3 alpha/beta	enzyme activity, inhibitor, ADP-Glo	–	2 µM, about MIC/10, added: ATP 10 µM	–	remaining activity	103%
c1cc(CN2CCOCC2)cc(Nc2nccc(NCCc3cnc[nH]3)n2)c1	403 human wild-type kinases	scanMAX	–	–	PoC below 10	number of kinases bound	9
COc1cccc(CNC(=O)C#Cc2cn(Cc3ccc(C(=O)O)cc3)c(=O)[nH]c2=O)c1	MMP-8	inhibitor, colorimetric	–	20 µM	–	remaining MMP-8 activity	108 ± 22%
CCCCCCCC(=O)OC[C@H](COP(=O)(O)O[C@@H]1[C@H](O)[C@H](O)[C@@H](OP(=O)(O)O)[C@H](OP(=O)(O)O)[C@H]1O)OC(=O)CCCCCCC	Kv7.2/Kv7.3(EEE) mutant channel	channel activation, activator, activation curve fit	–	model 3	–	maximal open probability	0.358
COc1cc(/C=C/Cc2ccc(O)c(OC)c2)ccc1O	STAT3	reporter gene, inhibitor	NCI-H460	–	–	IC50	2.63 µg/mL (≈ 9.19 µM)
Cn1cc(-c2ccc(-c3cncc(Cl)c3N3CCC4(CCNC4=O)CC3)cc2)cn1	COLO 205	gene expression, microarray, item: IFIT1 mRNA	–	concentration not given, 2 h	reference: untreated cells	log2 fold change	1.61
O=c1oc2c(O)c(O)cc3c(=O)oc4c(O)c(O)cc1c4c23	gasdermin E (human)	inhibitor	–	100 µM, 2 h	–	inhibition	78.3%
O=C1COc2ccc(-c3cccc(Cl)c3)cc2N1Cc1noc(C2CCC2)n1	UVRAG-Beclin1 interaction	NanoBRET	–	100 µM	reference: UVRAG-Beclin1 over ATG14L-Beclin1	selectivity ratio	1.36
NS(=O)(=O)c1ccc(CNc2nc(Nc3cccc(CN4CCOCC4)c3)ncc2Br)cc1	403 human wild-type kinases	scanMAX	–	–	PoC below 10	number of kinases bound	19
C=C1C(=O)O[C@@H]2C[C@@]3(C)CCCC(=C)[C@@H]3C[C@H]12	Gal4-VP16	reporter gene, Gal4-VP16 control reporter	–	10 µM	reference: vehicle	activation	1.02 fold
CCNCc1nc2c(N)nc3ccccc3c2n1CC(C)(C)O	Toxoplasma gondii	parasite growth, luciferase reporter	HFF, tachyzoite	72 h	–	EC90	22.8 µM

SMILES	target or system	test	test system	conditions	how to read	endpoint	value
c1coc(-c2n[nH]cc2-c2ccnc3ccccc23)c1	YAK1 (Candida albicans)	kinase binding, MIB/MS competition	Candida albicans lysate	1 µM	reference: DMSO	log2 fold change	-0.4
[Ca+2]	PP2C	enzyme activity	–	concentration not given	–	activity class	inactive
CN(C(=O)n1cnc(-c2ccc[n+]([O-])c2)c1)C1CCCCC1	L-type calcium channel	–	–	concentration not given, dihydropyridine site	–	inhibition	20.1%
CCCCCCCCC(=O)c1cc(O)c(O)c(O)c1	Gal4-VP16	reporter gene, Gal4-VP16 control reporter	–	10 µM	reference: vehicle	activation	1.41 fold
Cn1c(=O)c2[nH]cnc2n(C)c1=O	cGMP antibody	acetylated cGMP EIA	–	–	–	EC50	> 1000 µM
O=C(NCCCNc1nc(Nc2cccc(NC(=O)N3CCCC3)c2)ncc1Br)C1CCC1	403 human wild-type kinases	scanMAX	–	–	PoC below 10	number of kinases bound	90
[Mg+2]	PP2C	enzyme activity	–	concentration not given	–	activity class	active
Cc1nn(CC(F)(F)F)cc1Nc1ncc(C2CC2)c(NCc2ccc(S(N)(=O)=O)cc2)n1	403 human wild-type kinases	scanMAX	–	–	PoC below 10	number of kinases bound	2
OC[C@H]1O[C@@H]2O[C@H]3[C@H](O)[C@@H](O)[C@@H](O[C@H]4[C@H](O)[C@@H](O)[C@@H](O[C@H]5[C@H](O)[C@@H](O)[C@@H](O[C@H]6[C@H](O)[C@@H](O)[C@@H](O[C@H]7[C@H](O)[C@@H](O)[C@@H](O[C@H]8[C@H](O)[C@@H](O)[C@@H](O[C@H]1[C@H](O)[C@H]2O)O[C@@H]8CO)O[C@@H]7CO)O[C@@H]6CO)O[C@@H]5CO)O[C@@H]4CO)O[C@@H]3CO	LuxR	Escherichia coli sensor	–	100 µM	higher = stronger induction	bioluminescence induction	895 ± 11 RLU
Cc1nn(CC(F)(F)F)cc1Nc1ncc(Br)c(NCCc2cnc[nH]2)n1	403 human wild-type kinases	scanMAX	–	–	PoC below 10	number of kinases bound	28
CC(Nc1nc(N2CCCC2)nc2ccccc12)c1ccccc1 (stereo not shown)	importin α/β1	cMyc nuclear import, high content imaging	HeLa Kyoto reporter	0.03 µM, 2 h	–	cells with nuclear reporter	95.3% and 97.5%
Cc1nn(CC(F)(F)F)cc1Nc1nccc(NCc2ccc(S(N)(=O)=O)cc2)n1	403 human wild-type kinases	scanMAX binding	–	1 µM, hit below 10% of control	reference: hits over kinases tested, direction not given	selectivity score S10	0.002
CCc1nc(N)nc(N)c1-c1ccc(Cl)cc1	β-hematin formation	detergent-based	–	–	–	IC50	inactive
Cc1nn(CC(F)(F)F)cc1Nc1nccc(NCCc2cnc[nH]2)n1	403 human wild-type kinases	scanMAX binding	–	1 µM, hit below 10% of control	reference: hits over kinases tested, direction not given	selectivity score S10	0
O=C(O[C@]12C[C@H]3C[C@H](C[C@H](C3)C1)C2)c1ccc(NCc2cc(O)ccc2O)cc1	Toxoplasma gondii	parasite growth, luciferase reporter	HFF, tachyzoite	72 h	–	EC90	11.6 µM

Repeated from above:
SMILES	target or system	test	test system	conditions	how to read	endpoint	value
O=c1oc2c(O)c(O)cc3c(=O)oc4c(O)c(O)cc1c4c23	gasdermin E (human)	inhibitor	–	100 µM, 2 h	–	inhibition	78.3%
CCc1nc(N)nc(N)c1-c1ccc(Cl)cc1	β-hematin formation	detergent-based	–	–	–	IC50	inactive
